Measurements pooled from the literature.
Protocols differ between the studies behind these lines. Numbers after ± are the reported error.

Compound | system | conditions | how to read | measurement | result
CS(=O)(=O)n1cc2c(n1)CN([C@H]1CO[C@H](c3cc(F)ccc3F)[C@@H](N)C1)C2 | healthy Japanese men, plasma | oral, 1 mg once weekly, day 1 | – | Cmax | 15.7 nM
C#C[C@]1(O)CC[C@H]2[C@@H]3CCc4cc(O)ccc4[C@H]3CC[C@@]21C | postmenopausal women with type 2 diabetes | oral, dose not given, added: semaglutide steady state | reference: with over without semaglutide | Cmax ratio | 1.04
N[C@@H](CC(=O)N1CCn2c(nnc2C(F)(F)F)C1)Cc1cc(F)c(F)cc1F | healthy Korean subjects, plasma | oral, 100 mg single dose, ABCB1 G2677T/A TT | – | Cmax | 466 ± 112 ng/mL
COc1cc(OC)c(/C=C/S(=O)(=O)Cc2ccc(OC)c(NCC(=O)O)c2)c(OC)c1 | cancer patients, phase I, plasma | oral, 280 mg twice daily, day 1 cycle 1 | – | Cmax | 1840 ± 1310 ng/mL
CC(C)(C)c1cc(C(C)(C)C)c(NC(=O)c2c[nH]c3ccccc3c2=O)cc1O | healthy subjects, plasma | oral, 50 mg once daily, added: tezacaftor 25 mg, itraconazole 200 mg | reference: with over without itraconazole | Cmax ratio | 8.6
CC(C)(Sc1ccncc1-c1ccc(C#N)c2ccccc12)C(=O)O | healthy Japanese male subjects, plasma | oral, 2.5 mg single dose, day 1, fasted, geometric mean | – | Cmax | 4.89 ng/mL
C[C@@H](Oc1ccc(S(C)(=O)=O)cc1C(=O)N1C[C@@H]2C[C@]2(c2cc(C(F)(F)F)on2)C1)C(F)(F)F | healthy young subjects | oral, 75 mg twice daily, multiple dose | – | Cmax at steady state | 1930 nM
Nc1nnc(CN[C@@H]2C[C@H]2c2ccc(OCc3ccccc3)cc2)o1 | healthy young adults | oral, 1.0 mg/day, day 5, multiple dose, mean | – | Cmax at steady state | 14.1 ng/mL
CC(C)(CC(=O)N1CCCC1)NCC(=O)N1C[C@@H](F)C[C@H]1C#N | Chinese type 2 diabetes patients, plasma | oral, 200 mg once daily, multiple doses | – | Cmax at steady state | 567 ng/mL
CC[C@H](C)[C@H](NC(=O)[C@H](Cc1ccccc1)NC(=O)[C@H](CCC(=O)O)NC(=O)[C@H](CCCCNC(=O)COCCOCCNC(=O)COCCOCCNC(=O)CC[C@H](NC(=O)CCCCCCCCCCCCCCCCC(=O)O)C(=O)O)NC(=O)[C@H](C)NC(=O)[C@H](C)NC(=O)[C@H](CCC(N)=O)NC(=O)CNC(=O)[C@H](CCC(=O)O)NC(=O)[C@H](CC(C)C)NC(=O)[C@H](Cc1ccc(O)cc1)NC(=O)[C@H](CO)NC(=O)[C@H](CO)NC(=O)[C@@H](NC(=O)[C@H](CC(=O)O)NC(=O)[C@H](CO)NC(=O)[C@@H](NC(=O)[C@H](Cc1ccccc1)NC(=O)[C@@H](NC(=O)CNC(=O)[C@H](CCC(=O)O)NC(=O)C(C)(C)NC(=O)[C@@H](N)Cc1cnc[nH]1)[C@@H](C)O)[C@@H](C)O)C(C)C)C(=O)N[C@@H](C)C(=O)N[C@@H](Cc1c[nH]c2ccccc12)C(=O)N[C@@H](CC(C)C)C(=O)N[C@H](C(=O)N[C@@H](CCCNC(=N)N)C(=O)NCC(=O)N[C@@H](CCCNC(=N)N)C(=O)NCC(=O)O)C(C)C | healthy Caucasian subjects, plasma | subcutaneous, steady state, once weekly | reference: 1.0 mg over 0.5 mg | Cmax ratio | 2.13
Cc1ccc(NC(=O)c2ccc(CN3CCN(C)CC3)cc2)cc1Nc1nccc(-c2cncc(-c3oncc3C)c2)n1 | healthy volunteers, plasma | oral, 25.0 mg once daily, day 7, 7-day dosing, mean | – | Cmax | 1770 ng/mL
Cc1ccc(Sc2ccccc2N2CCNCC2)c(C)c1 | healthy men, plasma | oral, 5 mg once daily, fed, day 1 | – | Cmax | 1.8 ng/mL
C[C@@H]1CCO[C@H]2Cn3cc(C(=O)NCc4ccc(F)cc4F)c(=O)c(O)c3C(=O)N12 | severe renal impairment patients, plasma | oral, 50 mg single dose | reference: matched healthy subjects | Cmax decrease | 23%
NC(=O)c1cnc2[nH]ccc2c1N[C@@H]1[C@@H]2CC3C[C@H]1C[C@@](O)(C3)C2 | healthy men | oral, 20 to 200 mg | reference: Japanese over Caucasian | Cmax ratio | 1.6 fold
Cc1nc(-c2ccc(OCC(C)C)c(C#N)c2)sc1C(=O)O | healthy men, plasma | oral, 40 mg, geometric mean ratio, added: verinurad 10 mg | reference: with over without verinurad | Cmax ratio | 87.9%
O=C(c1ccc(F)c(F)c1Nc1ccc(I)cc1F)N1CC(O)([C@@H]2CCCCN2)C1 | paediatric patients, expansion cohort, plasma | oral, 1.0 mg/kg, mean | – | Cmax at steady state | 142 ng/mL

A few entries again:
Compound | system | conditions | how to read | measurement | result
COc1cc(OC)c(/C=C/S(=O)(=O)Cc2ccc(OC)c(NCC(=O)O)c2)c(OC)c1 | cancer patients, phase I, plasma | oral, 280 mg twice daily, day 1 cycle 1 | – | Cmax | 1840 ± 1310 ng/mL
CC(C)(C)c1cc(C(C)(C)C)c(NC(=O)c2c[nH]c3ccccc3c2=O)cc1O | healthy subjects, plasma | oral, 50 mg once daily, added: tezacaftor 25 mg, itraconazole 200 mg | reference: with over without itraconazole | Cmax ratio | 8.6
